# Experimental data collected from several papers.
# Parts stem from different laboratories: compare values within a part only. Changes are numbered by the printed parent chain.

# Set 1
# Target: Ras GTPase-activating protein-binding protein 1, C-terminal RGG region (G3BP1, Homo sapiens, UniProt Q13283)
# Sequence of UniProt Q13283 (whole entry, looked up): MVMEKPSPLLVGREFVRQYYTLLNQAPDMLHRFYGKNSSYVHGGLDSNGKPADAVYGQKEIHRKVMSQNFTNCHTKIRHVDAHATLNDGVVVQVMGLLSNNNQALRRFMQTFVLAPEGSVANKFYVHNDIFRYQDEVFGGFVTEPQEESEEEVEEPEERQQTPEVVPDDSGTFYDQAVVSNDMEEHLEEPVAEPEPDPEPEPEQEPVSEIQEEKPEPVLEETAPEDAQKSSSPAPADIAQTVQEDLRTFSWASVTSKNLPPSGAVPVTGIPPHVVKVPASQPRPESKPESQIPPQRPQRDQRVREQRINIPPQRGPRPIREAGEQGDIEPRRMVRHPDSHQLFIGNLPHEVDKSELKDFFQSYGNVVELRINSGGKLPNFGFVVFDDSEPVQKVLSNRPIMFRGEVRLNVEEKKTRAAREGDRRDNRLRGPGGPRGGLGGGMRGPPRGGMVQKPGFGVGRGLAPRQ
# Method: RNA Bind-n-Seq
# Form: RNA
# Medium: in vitro
# Concentration: 1 µM
# Setting: whole 134-nt RNA, ends assumed
# With: 150 mM KCl
# Baseline: input library
# Reading: higher = stronger binding
# Shared flanks, not repeated: GGGAGUUCUACAGUCCGACGAUC … UGGAAUUCUCGGGUGUCAAGG
Strand,log2 enrichment
ACUGGACCAGAUUGUUGAAAAAGGAAGACCAGCUCCUGGCUUCCAUCAUGGCGAUGGACCGGGAAAUGCAGUUCAAGAAAUCAUGAUUCC,-1.33
UGGGAGGUGGAUUUUGUUUAUUUUUUUAGCUCAUUUCCAGGGGAGGGAAUUUUUUUUUAAUAUGUGUCAUGAAUAAAGUUGUUUUUGAAA,2.91
UUAGAAGAAGAAGAUGGAGUGUGGGAGAAUGGACUUUCCUAUGAAUGCCGUACUCUGCUUUUCAAAGCAGUUCACAAUCUAUUGGAACGG,-1.94
UCAAGUCCUGUGCUACACAUCGUAUGUACCGAAUCGGUGGAAAGGAAAAAAAGGAAAGUAUUAUGUUACGCCGUUCGGAUCUGCACUUCC,-1.44
CAAGUCCUGUGCUACACAUCGUAUGUACCGAAUCGGCCCCGGGCCCCGGCCCCGGAAAGUAUUAUGUUACGCCGUUCGGAUCUGCACUUC,-1.99
CCUGUGCUACACAUCGUAUGUACCGAAUCGGGGAAAAAGGGGAAAAAAAGGGGAAAGGGGAAAGUAUUAUGUUACGCCGUUCGGAUCUGC,0.79
CUCAAGUCCUGUGCUACACAUCGUAUGUACCGAAUCGGGUGGGGUGGGUGGGGAAAGUAUUAUGUUACGCCGUUCGGAUCUGCACUUCCA,2.24
UCCUGUGCUACACAUCGUAUGUACCGAAUCGGGGUUUGGGGUUUUUUUGGGGUUUGGGGAAAGUAUUAUGUUACGCCGUUCGGAUCUGCA,2.02
UCAAGUCCUGUGCUACACAUCGUAUGUACCGAAUCGGUUUUUUUGGUUUGGAGGAAAGUAUUAUGUUACGCCGUUCGGAUCUGCACUUCC,-1.44
GCAGGAAGUAAAAACAAAUCGAAAUGCUUCGGAUAGUGGCAGGGGUGGGGGUUGCUAAGGAAAGGGUGGGAUGGGAGUGGGUAAAGAGUU,2.22

# Set 2
# Target: Homeobox protein Hox-C11, full length (HOXC11, Homo sapiens, UniProt O43248, residues 1-304)
# Sequence of UniProt O43248 (whole entry, looked up): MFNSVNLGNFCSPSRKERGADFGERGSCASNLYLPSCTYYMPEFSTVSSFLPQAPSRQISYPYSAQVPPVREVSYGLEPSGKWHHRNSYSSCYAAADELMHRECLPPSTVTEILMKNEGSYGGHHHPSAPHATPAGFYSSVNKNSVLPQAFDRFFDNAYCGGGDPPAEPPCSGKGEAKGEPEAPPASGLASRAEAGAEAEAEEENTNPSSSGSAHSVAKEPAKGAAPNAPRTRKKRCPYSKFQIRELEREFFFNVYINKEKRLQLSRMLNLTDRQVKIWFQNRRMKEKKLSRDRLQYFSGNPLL
# Method: protein-binding microarray
# Form: hairpin DNA
# Medium: in vitro
# Concentration: not given
# Setting: whole hairpin DNA, median over replicate spots
# Baseline: not given
# Reading: higher = stronger binding
Strand,median fluorescence
GAGGCCAGGTCGTTAGAGCCTCCTGGCTCTAACGACCTGGCCTCACACTC (5mC at 29),11400 a.u.
GAGGCCAGGTCGTACAAGCCTCCTGGCTTGTACGACCTGGCCTCACACTC,10400 a.u.
GAGGCCAAGTCGTTAAAGCCTCCTGGCTTTAACGACTTGGCCTCACACTC,10200 a.u.
GAGGCCAGGTCGGAAAAGCCTCCTGGCTTTTCCGACCTGGCCTCACACTC (5mC at 32),9940 a.u.
GAGGCCAGGTCGTTCAAGCCTCCTGGCTTGAACGACCTGGCCTCACACTC (5mC at 15),9680 a.u.
GAGGCCAGGCGGTAAAAGCCTCCTGGCTTTTACCGCCTGGCCTCACACTC (5mC at 10),9770 a.u.
GAGGCCAGGTCGCGAAAGCCTCCTGGCTTTCGCGACCTGGCCTCACACTC (5mC at 31),11500 a.u.
GAGGCCGGGTCGTTAAAGCCTCCTGGCTTTAACGACCCGGCCTCACACTC,12100 a.u.
GAGGCCAGGTCGTAAGAGCCTCCTGGCTCTTACGACCTGGCCTCACACTC,10300 a.u.
GAGGCCAGGTCATTAAAGCCTCCTGGCTTTAATGACCTGGCCTCACACTC,9880 a.u.
GAGGCCAGGTCGTTCAAGCCTCCTGGCTTGAACGACCTGGCCTCACACTC,10400 a.u.
GAGGCCAGGTCGTTCGAGCCTCCTGGCTCGAACGACCTGGCCTCACACTC (5mC at 15 29),10100 a.u.
GAGGCCAGGTCGTAAATGCCTCCTGGCATTTACGACCTGGCCTCACACTC,11000 a.u.
GAGGCCCGGTCGTTAAAGCCTCCTGGCTTTAACGACCGGGCCTCACACTC (5mC at 37),10400 a.u.
GAGGCCCGGTCGTAAAAGCCTCCTGGCTTTTACGACCGGGCCTCACACTC (5mC at 7 37),10700 a.u.
GAGGCCAGGTCCTAAAAGCCTCCTGGCTTTTAGGACCTGGCCTCACACTC,8190 a.u.
GAGGCCACGTCGTTAAAGCCTCCTGGCTTTAACGACGTGGCCTCACACTC (5mC at 36),9020 a.u.
GAGGCCAGGTCGTTAAAGCCTCCTGGCTTTAACGACCTGGCCTCACACTC (5mC at 37),10600 a.u.
GAGGCCGGGTCGTTAAAGCCTCCTGGCTTTAACGACCCGGCCTCACACTC (5mC at 38),11300 a.u.
GAGGCCAGGTCGTAAAAGCCTCCTGGCTTTTACGACCTGGCCTCACACTC (5mC at 11),10000 a.u.

# Set 3
# Target: Histone acetyltransferase KAT6A, winged helix 2, GST fusion (KAT6A, Homo sapiens, UniProt Q92794, residues 85-181)
# Method: protein binding microarray
# Form: double-stranded DNA, one strand shown
# Medium: in vitro
# Concentration: not given
# Setting: 8-mer, flanks averaged, mean of 2 arrays, mostly near background
# Baseline: not given
# Reading: higher = stronger binding
# Target sequence (chain): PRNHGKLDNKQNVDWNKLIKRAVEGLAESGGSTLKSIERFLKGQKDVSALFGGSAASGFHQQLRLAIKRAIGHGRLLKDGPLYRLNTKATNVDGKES
Strand,E-score
CATAGCCG,0.0826
CCTTAGAA,-0.089
TTGGCAAA,0.117
AATGGACT,-0.17
CTTCGCCA,0.161
TGACCTCA,-0.0823
TGCCTCAA,0.0397
CTGAATCA,0.0228
TAGTTGCA,0.0322
ACGATACC,0.0574
GCAATAAC,0.104
ACTCTCAT,-0.171
AGGACCGA,0.00928
ACGGCCCA,0.063
GCCGAAAA,0.225
ACCGCTCA,0.0895
CGACTCTC,-0.147
GCAGGACC,-0.0963
CCTCATAG,-0.08
CATAAGAG,0.0445
GACGCCTA,0.0143
GGAATAAA,0.0898
AGGAGCCA,0.0583
AGCACCTA,-0.123
TCTTCTCA,0.159

# Set 4
# Target: UBE2D1 UBC core domain (UniProt P51668)
# Sequence of UniProt P51668 (whole entry, looked up): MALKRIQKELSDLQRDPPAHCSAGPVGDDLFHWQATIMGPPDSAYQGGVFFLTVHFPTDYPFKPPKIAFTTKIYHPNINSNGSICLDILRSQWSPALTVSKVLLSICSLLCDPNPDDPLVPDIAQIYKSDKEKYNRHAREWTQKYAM
# Method: yeast two-hybrid
# Medium: yeast
# Setting: mostly zero background
# Baseline: not given
# Reading: higher = stronger interaction
# B1: TRIM47 RING domain (UniProt Q96LD4); chain MDGSGPFSCPICLEPLREPVTLPCGHNFCLACLGALWPHRGASGAGGPGGAARCPLCQEPFPDGLQLR
# B2: MDM2 RING domain (UniProt Q00987); chain TQDKEESVESSLPLNAIEPCVICQGRPKNGCIVHGKTGHLMACFTCAKKLKKRNKPCPVCRQPIQMIVLTYFP
# B3: SHPRH RING domain (UniProt Q149N8); chain KTSGGVNPEPCPICARQLGKQWAVLTCGHCFCNECISIIIEQYSVGSHRSSIKCAICRQTTSHKEISY
# B4: RMND5B RING domain (UniProt Q96G75); chain MKCWYHSVFACPILRQQTSDSNPPIKLICGHVISRDALNKLINGGKLKCPYCPMEQNPADGK
# B5: TRIM32 RING domain (UniProt Q13049); chain NLDALREVLECPICMESFTEEQLRPKLLHCGHTICRQCLEKLLASSINGVRCPFCSKITRITSLTQ
# B6: TRIM68 RING domain (UniProt Q6AZZ1); chain LVEAIVEEVACPICMTFLREPMSIDCGHSFCHSCLSGLWEIPGESQNWGYTCPLCRAPVQPRNLRP
Molecule,lacZ reporter activity
B1 (TRIM47 RING domain),0
B2 (MDM2 RING domain),0
VPADASPDSKCPICLDRFDNVSYLDRCLHKFCFRCVQEWSKNKAECPLCKQPFDSIFHSV (TOPORS RING domain (UniProt Q9NS56)),17600
B3 (SHPRH RING domain),0
B4 (RMND5B RING domain),5370
B5 (TRIM32 RING domain),0
B6 (TRIM68 RING domain),0
GSEEEEIPFRCFICRQAFQNPVVTKCRHYFCESCALEHFRATPRCYICDQPTGGIFNPA (RNF113B RING domain (UniProt Q8IZP6)),0

# Set 5
# Target: CCNA2, cyclin fold, Cln2 fusion (human)
# Method: yeast growth competition, sequencing
# Medium: yeast
# Setting: strong parent motif
# Baseline: not given
# Reading: higher = stronger binding
# Starting sequence: CDC25A docking peptide (human); PPHRRRLLFACSP
Substitution,normalised enrichment score
P2F,1.87
P2V,2.18
R5T,0.851
R4Y,1.66
P13A,2.54
R6Q,2.18
F9Y,1.75
H3E,1.05
P2Y,2.4
R6I,1.53
F9T,1.93
P13Y,2.31
R6H,1.11
L7M,1.27
L7S,1.27
P1R,2.69
C11I,2.26
R4S,1.18
R5G,1.04

# Set 6
# Target: ABI1, truncated, D143A, DHFR fusion (Arabidopsis thaliana)
# Method: DHFR PCA, deep sequencing
# Medium: yeast
# Setting: methotrexate growth selection, single substitutions
# With: (+)-ABA 17 µM
# Baseline: wild-type fitted maximum
# Reading: higher = stronger binding
# Starting sequence: PYL1, truncated, DHFR fusion (Arabidopsis thaliana); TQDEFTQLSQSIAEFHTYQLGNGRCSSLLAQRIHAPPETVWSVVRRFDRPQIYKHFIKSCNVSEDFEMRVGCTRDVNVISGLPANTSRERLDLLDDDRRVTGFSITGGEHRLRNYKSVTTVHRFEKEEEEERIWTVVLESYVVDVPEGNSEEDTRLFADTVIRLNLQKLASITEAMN
Substitution,relative binding score
I12G,0.17%
R45K,65%
N149V,24%
Q51E,77.9%
Y115A,0.873%
K58L,46.8%
E89N,7.66%
S80T,72.8%
F66A,72.1%
C60T,71.4%
E131Q,86.9%
A84V,10.1%
N165Y,-24%
V118D,6.58%
R69D,68.2%
F56H,1.57%
T17Q,61.6%
L138T,1.71%
R49T,77.2%
E109Y,39%
D95N,65.8%

# For quick reference, copied from above (set 6):
Substitution,relative binding score
A84V,10.1%
E89N,7.66%
C60T,71.4%
F66A,72.1%
R45K,65%
I12G,0.17%
V118D,6.58%
E131Q,86.9%
F56H,1.57%
Q51E,77.9%
